{"data": "Measured values of several laboratories", "BTK": "Tyrosine-protein kinase BTK (BTK, Homo sapiens, UniProt Q06187)", "BTK R28H": "Tyrosine-protein kinase BTK (BTK, Homo sapiens, UniProt Q06187, R28H)", "note": "Compare with care: the assays were run in different laboratories. “And” joins repeats or separate records; there may be more than shown."}
{"SMILES": "COCC12C(=O)NC3C4(C(OC)CC1O)C1CC5(O)C(OC)C(O)C(OC(C)=O)(C1C5OC(=O)c1ccccc1)C3(O)C(OC)C24 (stereo not drawn)", "target": "BTK", "assay": "kinase activity, inhibitor, ProQinase kinase profiling", "conditions": "25 µM", "how to read": "baseline: control", "endpoint": "remaining activity", "result": "108% and 101%"}
{"SMILES": "Cc1ccc(-c2n[nH]cc2CNC(=O)C2(C#N)CC2)cc1", "target": "BTK", "assay": "cell-free assay, competition with immobilised ligand", "conditions": "10 µM", "endpoint": "remaining binding", "result": "20%"}
{"SMILES": "COc1ccc(NC(=O)Nc2ccc3c(c2)C(=O)N(C(C)CO)CC(C)C(CN(C)Cc2ccc4c(c2)OCO4)O3)cc1 (stereo not drawn)", "target": "BTK", "assay": "kinase activity, KinaseProfiler", "conditions": "0.03 µM, species human", "how to read": "baseline: control", "endpoint": "remaining activity", "result": "98%"}
{"SMILES": "CNC(=O)C[C@H](Cc1ccc(C#N)cc1)NC(=O)c1cc(-c2ccc(CN[C@H](C)c3ccc(C)cc3)o2)ccc1Cl", "target": "BTK", "assay": "enzyme activity, inhibitor", "conditions": "1 µM", "endpoint": "activity vs control", "result": "98%"}
{"SMILES": "C=CC(=O)Nc1cccc(-c2cnc3[nH]cc(C(=O)NC(C)(C)C)c3n2)c1", "target": "BTK", "assay": "enzyme activity, inhibitor", "conditions": "0.1 µM", "endpoint": "inhibition", "result": "29%"}
{"SMILES": "Cc1nc2c(F)cc(-c3nc(Nc4ccc(CNC(=O)CCCCCCC(=O)NO)cc4)ncc3F)cc2n1C(C)C", "target": "BTK R28H", "assay": "enzyme activity, inhibitor", "conditions": "1 µM", "endpoint": "inhibition", "result": "14%"}
{"SMILES": "CCN1CCN(Cc2ccc(NC(=O)c3ccc(C)c(NC(=O)c4cncc(-c5cccs5)c4)c3)cc2C(F)(F)F)CC1", "target": "BTK", "assay": "binding, competition with immobilised ligand", "conditions": "1 µM", "endpoint": "remaining binding", "result": "1%"}
{"SMILES": "O=C(Nc1ccc(Oc2ncnc3[nH]cc(-c4ccccc4)c23)c(F)c1)c1c2n(n(-c3cc(F)ccc3F)c1=O)CCCC2", "target": "BTK", "assay": "enzyme activity, inhibitor", "conditions": "0.5 µM", "endpoint": "inhibition", "result": "26%"}
{"SMILES": "CN1CCN(Cc2ccc(-c3ccc(CO[C@H]4CCC[C@@H]4NC(=O)c4cc(-c5cnn(C)c5)cnc4N)cc3)cc2)CC1", "target": "BTK", "assay": "enzyme activity, inhibitor", "conditions": "0.1 µM", "endpoint": "inhibition", "result": "1%"}
{"SMILES": "O=C=[N][Ru-4]123([n]4c5ccc(O)cc5c5c6c(c7cc(F)c[n+]1c7c54)C(=O)NC6=O)[S+]1CC[S+]2CC[S+]3CC1 (stereo not drawn)", "target": "BTK R28H", "assay": "enzyme activity", "conditions": "100 nM, human enzyme, added: 10 µM ATP", "how to read": "baseline: untreated", "endpoint": "remaining activity", "result": "112%"}
{"SMILES": "COc1c(Cl)cccc1Nc1c(-c2ccncc2C#C[C@@]2(C)CCCN2C(=O)/C=C/CN(C)C)[nH]c2c1C(=O)NCC2", "target": "BTK", "assay": "binding, competition with immobilised ligand", "conditions": "3 µM", "endpoint": "remaining binding", "result": "50%"}
{"SMILES": "Cc1cccc(-c2ccc3nc(NC(=O)C4CCCO4)nn3c2)c1 (stereo not drawn)", "target": "BTK", "assay": "enzyme activity, Dundee kinase panel", "conditions": "10 µM", "endpoint": "remaining activity", "result": "63%"}
{"SMILES": "CN1CCN(Cc2ccc(NC(=O)c3cccc(C#Cc4cnc(N)c5ncccc45)c3)cc2C(F)(F)F)CC1", "target": "BTK", "assay": "cell-free assay, competition with immobilised ligand", "conditions": "0.5 µM", "endpoint": "remaining binding", "result": "54%"}
{"SMILES": "Cc1cnc2nc1Nc1cccc(c1)COC/C=C/COCc1cc(ccc1OCCN1CCOCC1)N2", "target": "BTK", "assay": "cell-free assay", "conditions": "0.1 µM", "endpoint": "remaining signal", "result": "50%"}
{"SMILES": "Nc1ncc2c(n1)-c1c([nH]c3ccc(C4=CCOCC4)cc13)CCC2", "target": "BTK", "assay": "binding, competition with immobilised ligand", "conditions": "1 µM", "endpoint": "remaining binding", "result": "95%"}
{"SMILES": "Cc1cccc(O[C@H]2CCC[C@@H](C(C)CNCc3ccncc3)C2)c1 (relative stereo)", "target": "BTK", "assay": "kinase activity, kinome panel screening", "conditions": "10 µM", "endpoint": "inhibition", "result": "-2%"}
{"SMILES": "CNC1C[S+]2CC[S+]3CC[S+](C1)[Ru-4]321([N]=C=S)[n]2c3ccc(OC)cc3c3c4c(c5cc(F)c[n+]1c5c32)C(=O)NC4=O (stereo not drawn)", "target": "BTK", "assay": "KinomeScan", "conditions": "0.1 µM", "how to read": "baseline: untreated", "endpoint": "remaining binding", "result": "98%"}
{"SMILES": "CCN1CCN(Cc2ccc(C(=O)Nc3ccc(C)c(NCc4cnc5[nH]ccc5c4OC)c3)cc2C(F)(F)F)CC1", "target": "BTK", "assay": "binding, competition with immobilised ligand", "conditions": "1 µM", "endpoint": "remaining binding", "result": "8.8%"}
{"SMILES": "Cc1ccc(C)c(-c2ccc3nc(NC(=O)C4CCCCC4)nn3c2)c1", "target": "BTK", "assay": "enzyme activity, Dundee kinase panel", "conditions": "10 µM", "endpoint": "remaining activity", "result": "61%"}
{"SMILES": "C=CC(=O)N1CCCC(n2c(=O)c3ncccc3n(Cc3ccc(Oc4ccccc4)cc3)c2=O)C1 (stereo not drawn)", "target": "BTK", "assay": "cell-free assay, competition with immobilised ligand", "conditions": "1 µM", "endpoint": "remaining binding", "result": "68%"}
{"SMILES": "c1ccc2c(Nc3cc(C4CCC4)[nH]n3)nc(Nc3ccc4nc[nH]c4c3)nc2c1", "target": "BTK", "assay": "enzyme activity, inhibitor", "conditions": "0.25 µM", "endpoint": "remaining activity", "result": "14%"}
{"SMILES": "O=C(Cc1ccc(OCc2ccccc2)cc1)NC1(C(=O)O)CCN(C(=O)c2ccc(-c3cccc(Cl)c3)cc2)CC1", "target": "BTK", "assay": "enzyme activity, inhibitor", "conditions": "10 µM", "endpoint": "activity vs control", "result": "82%"}
{"SMILES": "NC(=O)[C@@H](O)C[C@H]1CCc2sc3ncnc(O[C@H]4CC[C@H](N5CCOCC5)CC4)c3c21", "target": "BTK", "assay": "enzyme activity, inhibitor", "conditions": "10 µM", "endpoint": "inhibition", "result": "30%"}
{"SMILES": "CC(C)=CC1OC(C)(C)C2C=C3C(=O)C(Cl)=CC(O)C3C3C(O)C4OC4C(=O)C132 (stereo not drawn)", "target": "BTK", "assay": "cell-free assay, competition with immobilised ligand", "conditions": "10 µM", "endpoint": "remaining binding", "result": "98%"}
{"note": "A few entries again:"}
{"SMILES": "COc1ccc(NC(=O)Nc2ccc3c(c2)C(=O)N(C(C)CO)CC(C)C(CN(C)Cc2ccc4c(c2)OCO4)O3)cc1 (stereo not drawn)", "target": "BTK", "assay": "kinase activity, KinaseProfiler", "conditions": "0.03 µM, species human", "how to read": "baseline: control", "endpoint": "remaining activity", "result": "98%"}
{"SMILES": "CNC(=O)C[C@H](Cc1ccc(C#N)cc1)NC(=O)c1cc(-c2ccc(CN[C@H](C)c3ccc(C)cc3)o2)ccc1Cl", "target": "BTK", "assay": "enzyme activity, inhibitor", "conditions": "1 µM", "endpoint": "activity vs control", "result": "98%"}
{"SMILES": "C=CC(=O)Nc1cccc(-c2cnc3[nH]cc(C(=O)NC(C)(C)C)c3n2)c1", "target": "BTK", "assay": "enzyme activity, inhibitor", "conditions": "0.1 µM", "endpoint": "inhibition", "result": "29%"}
